Measurements collected from several papers.
Compare with care: the assays were run in different laboratories. ± gives the spread as reported.

Compound	assay	test system	conditions	measurement	value
CO[C@H]1/C=C/O[C@@]2(C)Oc3c(C)c(O)c4c(O)c(c(/C=N/N5CCN(C)CC5)c(O)c4c3C2=O)NC(=O)/C(C)=C\C=C\[C@H](C)[C@H](O)[C@@H](C)[C@@H](O)[C@@H](C)[C@H](OC(C)=O)[C@@H]1C		human, plasma	day 2 of treatment	plasma bilirubin	14 to 29 µM
C[C@]12C=CC(=O)C=C1CC[C@@H]1[C@@H]2[C@@H](O)C[C@@]2(C)[C@H]1CC[C@]2(O)C(=O)CO		human castration-resistant prostate cancer, plasma	10 mg daily, 48 days, two patients	plasma concentration	< 4 nM
CC[C@H](C)[C@H](NC(=O)[C@H](Cc1ccccc1)NC(=O)[C@H](CCC(=O)O)NC(=O)[C@H](CCCCNC(=O)COCCOCCNC(=O)COCCOCCNC(=O)CC[C@H](NC(=O)CCCCCCCCCCCCCCCCC(=O)O)C(=O)O)NC(=O)[C@H](C)NC(=O)[C@H](C)NC(=O)[C@H](CCC(N)=O)NC(=O)CNC(=O)[C@H](CCC(=O)O)NC(=O)[C@H](CC(C)C)NC(=O)[C@H](Cc1ccc(O)cc1)NC(=O)[C@H](CO)NC(=O)[C@H](CO)NC(=O)[C@@H](NC(=O)[C@H](CC(=O)O)NC(=O)[C@H](CO)NC(=O)[C@@H](NC(=O)[C@H](Cc1ccccc1)NC(=O)[C@@H](NC(=O)CNC(=O)[C@H](CCC(=O)O)NC(=O)C(C)(C)NC(=O)[C@@H](N)Cc1cnc[nH]1)[C@@H](C)O)[C@@H](C)O)C(C)C)C(=O)N[C@@H](C)C(=O)N[C@@H](Cc1c[nH]c2ccccc12)C(=O)N[C@@H](CC(C)C)C(=O)N[C@H](C(=O)N[C@@H](CCCNC(=N)N)C(=O)NCC(=O)N[C@@H](CCCNC(=N)N)C(=O)NCC(=O)O)C(C)C		human, plasma	oral, 14 mg once daily	plasma exposure	14.6 nM
Cc1cn(-c2cc(NC(=O)c3ccc(C)c(Nc4nccc(-c5cccnc5)n4)c3)cc(C(F)(F)F)c2)cn1		human, plasma, unbound	oral, dose not given	plasma half-life	12.4 h
CNC(=O)c1ccccc1Sc1ccc2c(/C=C/c3ccccn3)n[nH]c2c1		healthy human volunteers, plasma	oral, together with: ketoconazole co-administration	plasma half-life	13.1 h
Oc1ccc2c3c(cnc2c1)-c1ccc(C(F)(F)F)cc1O[C@@H]3c1ccc(OCCN2CC(CF)C2)cc1		human, healthy female	intravenous, 45 µg, together with: oral 400 mg tablets	plasma radioactivity tmax	0.25 h
O=C(O)CNC(=O)c1ccccc1[131I]		healthy human volunteers, plasma	two-compartment model	plasma clearance	472 ± 108 mL/min
CS(=O)(=O)O.O=C(NC[C@H]1CN(c2ccc(N3CCNC=N3)cc2)C(=O)O1)c1ccc(Cl)s1	mass balance	human, plasma	dose not given	plasma radioactivity as parent	58.4%
CCCCCN1C[C@H](O)[C@@H](O)[C@H](O)[C@@H]1CO	refers to: ΔΔQTcF above 10 ms	human	oral	plasma concentration excluding QTcF effect	~22000 ng/mL

A few entries again:
Compound	assay	test system	conditions	measurement	value
Cc1cn(-c2cc(NC(=O)c3ccc(C)c(Nc4nccc(-c5cccnc5)n4)c3)cc(C(F)(F)F)c2)cn1		human, plasma, unbound	oral, dose not given	plasma half-life	12.4 h
